{"data": "Results from different studies", "target": "Interleukin-1 receptor-associated kinase 4 (IRAK4, Homo sapiens, UniProt Q9NWZ3)", "chain of UniProt Q9NWZ3 (whole entry, looked up)": "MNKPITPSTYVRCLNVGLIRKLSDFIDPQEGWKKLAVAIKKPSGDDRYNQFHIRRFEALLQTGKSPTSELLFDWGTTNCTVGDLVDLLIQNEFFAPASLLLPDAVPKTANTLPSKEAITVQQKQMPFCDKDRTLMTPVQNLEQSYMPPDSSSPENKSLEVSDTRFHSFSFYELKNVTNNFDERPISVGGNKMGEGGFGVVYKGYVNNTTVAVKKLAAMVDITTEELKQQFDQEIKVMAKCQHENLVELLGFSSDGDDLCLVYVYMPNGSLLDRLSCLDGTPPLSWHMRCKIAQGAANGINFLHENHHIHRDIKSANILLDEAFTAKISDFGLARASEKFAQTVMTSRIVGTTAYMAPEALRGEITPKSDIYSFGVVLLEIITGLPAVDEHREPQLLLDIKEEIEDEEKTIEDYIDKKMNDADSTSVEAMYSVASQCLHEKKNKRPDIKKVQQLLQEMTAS"}
{"SMILES": "O=C1NC(=O)/C(=C/c2ccc(-c3ccc(F)cc3O)o2)S1", "test": "enzyme activity", "conditions": "10 µM", "quantity": "remaining activity", "value": "114%"}
{"SMILES": "O=C(NC1CCC1)c1ccc2nc(-c3cccc(NS(=O)(=O)NCCN4CCCCC4)c3)cn2c1", "test": "enzyme activity", "conditions": "10 µM", "quantity": "remaining activity", "value": "76%"}
{"SMILES": "CCN(CC)c1ccc(C2=NNC(=O)CC2C)cc1[N+](=O)[O-] (stereo not shown)", "test": "enzyme activity, inhibitor", "conditions": "10 µM", "scale": "reference: vehicle", "quantity": "remaining activity", "value": "95%"}
{"SMILES": "Cc1cc(Nc2cc(N3CCN(C)CC3)nc(Sc3ccc(NC(=O)C4CC4)cc3)n2)[nH]n1", "test": "kinase activity, KinaseProfiler", "conditions": "0.03 µM, species human", "scale": "reference: control", "quantity": "remaining activity", "value": "101%"}
{"SMILES": "C=CC(=O)N1CCC(C(=O)NCC(=O)N2CCN(c3nc(-c4cnc(N)nc4C(F)F)nc(N4CCOCC4)n3)CC2)CC1", "test": "KINOMEscan", "conditions": "1 µM", "quantity": "remaining binding", "value": "95%"}
{"SMILES": "C1=C/COCc2cc(ccc2OCCN2CCCC2)Nc2nccc(n2)-c2cccc(c2)COC/1", "conditions": "concentration not given", "quantity": "percent of control", "value": "56%"}
{"SMILES": "C=CC(=O)N1CCC(COCC(=O)N2CCN(c3nc(-c4cnc(N)nc4C(F)F)nc(N4CCOC[C@@H]4C)n3)CC2)CC1", "test": "KINOMEscan", "conditions": "1 µM", "scale": "reference: DMSO control", "quantity": "remaining binding", "value": "84%"}
{"SMILES": "CCCOc1ccc(OC)c(F)c1C(=O)c1ccc(C(=O)N[C@@H]2CNC[C@H]2NC(=O)c2ccc3[nH]ncc3c2)cc1", "test": "enzyme activity", "conditions": "10 µM", "quantity": "remaining activity", "value": "88%"}
{"SMILES": "C[C@@H](c1ccc(-n2cnc3c(N)ncnc32)cc1)N1CCc2nn(C)c(Cc3ccccc3)c2C1=O", "test": "KINOMEscan", "conditions": "0.1 µM", "scale": "reference: DMSO control", "quantity": "remaining binding", "value": "73%"}
{"SMILES": "COc1cc(F)ccc1-c1ncnc(Nc2cccc(C[S@](C)(=N)=O)c2)n1", "test": "kinase activity", "conditions": "10 µM, together with: 10 µM ATP", "quantity": "remaining activity", "value": "53%"}
